Assay results gathered from unrelated publications.
Parts stem from different laboratories: compare values within a part only.
Sequence of UniProt Q7KZI7 (whole entry, looked up): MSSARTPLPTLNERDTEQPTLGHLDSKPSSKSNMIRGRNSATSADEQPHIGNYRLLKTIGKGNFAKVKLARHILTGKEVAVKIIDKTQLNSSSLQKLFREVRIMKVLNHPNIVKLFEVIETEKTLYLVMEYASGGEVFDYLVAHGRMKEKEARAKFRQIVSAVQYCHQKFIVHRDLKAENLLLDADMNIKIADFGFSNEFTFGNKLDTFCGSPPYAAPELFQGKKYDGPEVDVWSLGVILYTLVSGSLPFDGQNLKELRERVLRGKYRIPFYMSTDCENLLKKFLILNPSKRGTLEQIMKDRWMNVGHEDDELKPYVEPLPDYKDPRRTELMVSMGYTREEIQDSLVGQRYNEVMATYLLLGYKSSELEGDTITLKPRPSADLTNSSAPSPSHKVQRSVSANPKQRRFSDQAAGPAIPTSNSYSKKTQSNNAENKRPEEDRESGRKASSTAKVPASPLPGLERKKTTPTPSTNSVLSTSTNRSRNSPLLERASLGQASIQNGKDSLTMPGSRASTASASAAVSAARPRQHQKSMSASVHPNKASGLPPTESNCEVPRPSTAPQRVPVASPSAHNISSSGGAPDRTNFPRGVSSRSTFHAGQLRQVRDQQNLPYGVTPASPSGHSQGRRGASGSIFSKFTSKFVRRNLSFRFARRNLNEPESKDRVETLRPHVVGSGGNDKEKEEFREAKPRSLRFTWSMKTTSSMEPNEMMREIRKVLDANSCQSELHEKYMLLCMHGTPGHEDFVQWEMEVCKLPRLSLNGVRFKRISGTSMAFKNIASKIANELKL
Sequence of UniProt Q9Y5S2 (whole entry, looked up): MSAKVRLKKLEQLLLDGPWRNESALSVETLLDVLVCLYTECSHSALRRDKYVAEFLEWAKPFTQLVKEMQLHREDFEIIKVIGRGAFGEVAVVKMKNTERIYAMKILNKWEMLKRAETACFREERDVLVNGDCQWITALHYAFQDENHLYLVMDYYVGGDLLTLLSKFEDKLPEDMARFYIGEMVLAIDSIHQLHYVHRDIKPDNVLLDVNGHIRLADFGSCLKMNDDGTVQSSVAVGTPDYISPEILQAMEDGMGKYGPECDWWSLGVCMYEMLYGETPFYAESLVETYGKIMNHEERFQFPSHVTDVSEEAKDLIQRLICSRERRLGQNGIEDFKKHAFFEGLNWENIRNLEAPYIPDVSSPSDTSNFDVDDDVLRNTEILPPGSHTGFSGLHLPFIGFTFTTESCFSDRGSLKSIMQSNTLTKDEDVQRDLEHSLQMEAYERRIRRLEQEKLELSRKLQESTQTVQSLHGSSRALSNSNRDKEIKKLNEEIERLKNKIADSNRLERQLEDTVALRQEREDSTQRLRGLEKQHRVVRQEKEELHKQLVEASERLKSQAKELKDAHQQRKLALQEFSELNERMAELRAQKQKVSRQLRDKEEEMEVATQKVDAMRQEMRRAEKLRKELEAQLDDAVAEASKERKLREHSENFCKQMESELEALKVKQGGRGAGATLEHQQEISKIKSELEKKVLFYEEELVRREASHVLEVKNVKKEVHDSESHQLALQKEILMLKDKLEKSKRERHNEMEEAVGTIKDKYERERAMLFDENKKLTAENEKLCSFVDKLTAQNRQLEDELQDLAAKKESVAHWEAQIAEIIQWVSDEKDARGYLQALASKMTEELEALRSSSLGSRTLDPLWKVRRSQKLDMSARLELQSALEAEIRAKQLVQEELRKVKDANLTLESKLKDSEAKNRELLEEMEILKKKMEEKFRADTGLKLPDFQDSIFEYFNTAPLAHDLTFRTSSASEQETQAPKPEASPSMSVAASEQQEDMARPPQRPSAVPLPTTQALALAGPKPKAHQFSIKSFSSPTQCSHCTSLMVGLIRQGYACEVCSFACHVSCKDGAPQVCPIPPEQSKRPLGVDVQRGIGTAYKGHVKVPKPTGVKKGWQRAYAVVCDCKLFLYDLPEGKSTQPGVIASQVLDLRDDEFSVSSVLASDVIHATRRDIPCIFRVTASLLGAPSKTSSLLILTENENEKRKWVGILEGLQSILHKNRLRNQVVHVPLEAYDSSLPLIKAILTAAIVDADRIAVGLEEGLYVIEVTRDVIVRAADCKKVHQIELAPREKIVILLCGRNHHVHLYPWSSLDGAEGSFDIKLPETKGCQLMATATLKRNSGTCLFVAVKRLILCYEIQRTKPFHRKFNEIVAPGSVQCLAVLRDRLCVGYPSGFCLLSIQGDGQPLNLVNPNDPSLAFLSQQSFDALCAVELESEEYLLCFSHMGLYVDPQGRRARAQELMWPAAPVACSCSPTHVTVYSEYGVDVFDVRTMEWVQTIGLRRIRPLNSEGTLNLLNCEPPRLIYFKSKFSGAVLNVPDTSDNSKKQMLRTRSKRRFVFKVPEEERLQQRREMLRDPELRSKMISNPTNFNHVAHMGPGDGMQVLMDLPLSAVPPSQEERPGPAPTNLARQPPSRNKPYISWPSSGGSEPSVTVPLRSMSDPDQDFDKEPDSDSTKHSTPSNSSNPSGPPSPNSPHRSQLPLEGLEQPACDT
Sequence of UniProt P49761 (whole entry, looked up): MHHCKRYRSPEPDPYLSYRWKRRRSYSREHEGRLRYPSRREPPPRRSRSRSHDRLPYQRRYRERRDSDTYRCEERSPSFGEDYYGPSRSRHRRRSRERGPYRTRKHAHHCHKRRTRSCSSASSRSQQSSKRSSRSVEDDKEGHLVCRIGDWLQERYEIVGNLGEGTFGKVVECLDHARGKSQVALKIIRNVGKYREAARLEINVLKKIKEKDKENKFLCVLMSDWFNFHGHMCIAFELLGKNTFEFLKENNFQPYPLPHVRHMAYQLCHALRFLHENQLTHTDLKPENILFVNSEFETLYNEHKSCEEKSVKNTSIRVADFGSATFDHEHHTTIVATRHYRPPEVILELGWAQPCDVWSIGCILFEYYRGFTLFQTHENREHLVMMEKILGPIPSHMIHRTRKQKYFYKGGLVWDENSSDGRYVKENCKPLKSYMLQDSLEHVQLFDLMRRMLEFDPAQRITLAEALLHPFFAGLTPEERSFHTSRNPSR
Sequence of UniProt Q16566 (whole entry, looked up): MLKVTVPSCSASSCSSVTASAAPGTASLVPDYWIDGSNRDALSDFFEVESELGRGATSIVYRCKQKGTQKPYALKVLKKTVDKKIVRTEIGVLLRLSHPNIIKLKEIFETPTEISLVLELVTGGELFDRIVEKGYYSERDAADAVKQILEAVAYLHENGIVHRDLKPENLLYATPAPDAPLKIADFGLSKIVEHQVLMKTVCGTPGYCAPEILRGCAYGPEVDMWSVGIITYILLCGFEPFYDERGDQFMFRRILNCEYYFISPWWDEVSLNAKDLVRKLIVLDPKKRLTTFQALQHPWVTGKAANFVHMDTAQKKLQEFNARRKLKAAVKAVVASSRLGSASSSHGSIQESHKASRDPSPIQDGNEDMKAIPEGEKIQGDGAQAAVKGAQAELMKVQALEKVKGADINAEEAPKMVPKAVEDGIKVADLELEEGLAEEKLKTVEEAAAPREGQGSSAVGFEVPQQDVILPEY
Sequence of UniProt O75676 (whole entry, looked up): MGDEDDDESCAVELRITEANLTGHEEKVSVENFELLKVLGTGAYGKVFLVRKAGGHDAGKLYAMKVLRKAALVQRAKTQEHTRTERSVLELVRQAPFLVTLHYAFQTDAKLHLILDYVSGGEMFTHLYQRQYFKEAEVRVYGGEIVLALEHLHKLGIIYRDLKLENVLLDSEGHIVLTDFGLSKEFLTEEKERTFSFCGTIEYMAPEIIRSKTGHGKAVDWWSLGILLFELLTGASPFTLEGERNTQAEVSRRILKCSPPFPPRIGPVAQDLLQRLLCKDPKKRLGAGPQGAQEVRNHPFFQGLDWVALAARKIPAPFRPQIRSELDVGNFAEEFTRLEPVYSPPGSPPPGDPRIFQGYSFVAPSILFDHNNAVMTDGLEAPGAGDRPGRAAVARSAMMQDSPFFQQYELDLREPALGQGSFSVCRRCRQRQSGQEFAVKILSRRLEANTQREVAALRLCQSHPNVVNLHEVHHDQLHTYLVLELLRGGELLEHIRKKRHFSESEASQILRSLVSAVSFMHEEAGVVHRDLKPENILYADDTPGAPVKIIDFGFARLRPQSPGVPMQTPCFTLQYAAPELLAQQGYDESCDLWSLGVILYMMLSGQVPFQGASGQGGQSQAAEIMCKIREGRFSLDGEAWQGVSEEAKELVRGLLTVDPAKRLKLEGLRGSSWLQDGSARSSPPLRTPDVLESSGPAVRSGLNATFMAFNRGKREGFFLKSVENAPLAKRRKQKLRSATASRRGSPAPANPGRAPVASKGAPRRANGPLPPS
Sequence of UniProt P08631 (whole entry, looked up): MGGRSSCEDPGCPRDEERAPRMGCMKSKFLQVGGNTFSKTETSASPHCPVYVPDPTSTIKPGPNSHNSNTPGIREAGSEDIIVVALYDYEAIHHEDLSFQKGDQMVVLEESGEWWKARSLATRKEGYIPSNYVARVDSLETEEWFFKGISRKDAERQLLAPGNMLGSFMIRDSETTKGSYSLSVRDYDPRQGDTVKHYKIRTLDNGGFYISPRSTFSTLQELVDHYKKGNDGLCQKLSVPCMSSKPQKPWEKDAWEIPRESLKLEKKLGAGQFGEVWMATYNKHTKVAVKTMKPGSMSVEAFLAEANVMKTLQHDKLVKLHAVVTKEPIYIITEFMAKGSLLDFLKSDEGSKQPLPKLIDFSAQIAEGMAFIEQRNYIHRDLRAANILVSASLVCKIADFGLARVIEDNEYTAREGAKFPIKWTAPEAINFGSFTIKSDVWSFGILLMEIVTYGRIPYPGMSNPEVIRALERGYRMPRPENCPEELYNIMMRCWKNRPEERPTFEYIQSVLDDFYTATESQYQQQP

Sample 1
Structure (SMILES): COc1cc2ncnc(N3CCN(C(=O)Nc4ccc(Oc5ccccc5)cc4)CC3)c2cc1OC
Observed: enzyme activity
Action: inhibitor
Concentration: 0.5 µM
Relative to: control
Myosin-IIIb (MYO3B, Homo sapiens, UniProt Q8WXR4) — remaining activity: 95.4%.
MAPK1 (Homo sapiens, UniProt P28482) — remaining activity: 83.9%.
It gave 94.7% for remaining activity (TLK2 (Homo sapiens, UniProt Q86UE8)).
For MAPK11 (Homo sapiens, UniProt Q15759): remaining activity read 99.6%.
It gave 97.4% for remaining activity (MARK2 (Homo sapiens, UniProt Q7KZI7)).
It gave 96.2% for remaining activity (RPS6KA4 (Homo sapiens, UniProt O75676)).
For MET (Homo sapiens, UniProt P08581): remaining activity read 107%.
CDC42BPB (Homo sapiens, UniProt Q9Y5S2) — remaining activity: 98.3%.
PAK3 (Homo sapiens, UniProt O75914) — remaining activity: 98.1%.
It gave 90.6% for remaining activity (DCLK2 (Homo sapiens, UniProt Q8N568)).
The remaining activity was 88.9% (CLK3 (Homo sapiens, UniProt P49761)).
PNCK (Homo sapiens, UniProt Q6P2M8) — remaining activity: 94.3%.
For CAMK4 (Homo sapiens, UniProt Q16566): remaining activity read 102%.
For PRKG2 (Homo sapiens, UniProt Q13237): remaining activity read 97.5%.

Sample 2
Target: PABPC1L2, full length, GST fusion (mouse, UniProt A0ABA7IW68)
Method: RNAcompete
Molecule type: RNA
Matrix: in vitro
Concentration: 20 nM
Setting: 7-mer, probes averaged, single round
Relative to: mean of 7-mers
Reading: higher = stronger binding
Construct (chain): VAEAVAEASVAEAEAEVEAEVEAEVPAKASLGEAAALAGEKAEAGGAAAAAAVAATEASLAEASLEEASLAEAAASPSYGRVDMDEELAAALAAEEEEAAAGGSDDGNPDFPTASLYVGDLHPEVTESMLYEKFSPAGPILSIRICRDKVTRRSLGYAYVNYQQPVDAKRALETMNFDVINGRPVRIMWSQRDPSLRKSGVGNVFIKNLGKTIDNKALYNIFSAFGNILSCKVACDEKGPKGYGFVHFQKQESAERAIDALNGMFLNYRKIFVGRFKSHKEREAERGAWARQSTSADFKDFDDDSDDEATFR
`GGACCAC` gave a 7-mer Z-score of 0.187.
`UCGAGCC` gave a 7-mer Z-score of -0.287.
`CCGCCAG` gave a 7-mer Z-score of -0.347.
`UAAGUGA` has a 7-mer Z-score of -0.11.
`UUGGGUC` has a 7-mer Z-score of 0.037.
`AACCGUC` has a 7-mer Z-score of -0.219.
For `AGUUGAC`, the 7-mer Z-score was -0.0989.
With `CGUAUGU` the 7-mer Z-score was -0.306.

Sample 3
SMILES: O=C1CCc2cc(Nc3cc(OC4CCOCC4)c([N+](=O)[O-])cc3Cl)ccc2N1
Concentration: 1 µM
It gave 100% for remaining binding (AAK1 (Homo sapiens, UniProt Q2M2I8); binding).
The remaining binding was 93% (STK16 (Homo sapiens, UniProt O75716); cell-free assay, competition with immobilised ligand).
For HCK (Homo sapiens, UniProt P08631); cell-free assay, competition with immobilised ligand: remaining binding read 100%.
PIK3CA (Homo sapiens, UniProt P42336, E542K); cell-free assay, competition with immobilised ligand — remaining binding: 71%.
The remaining binding was 100% (CHUK (Homo sapiens, UniProt O15111); cell-free assay, competition with immobilised ligand).
GSK3B (Homo sapiens, UniProt P49841); cell-free assay, competition with immobilised ligand — remaining binding: 96%.
The remaining binding was 82% (AKT2 (Homo sapiens, UniProt P31751); cell-free assay, competition with immobilised ligand).

Single results of other studies
The fold induction of `PhoQ, residues 284 288 289 292 302 303 TAVSDG` is reported as 9.11 (PhoP, residues 12 14 15 18 19 NQFFI (Escherichia coli, UniProt P23836); Sort-seq, measured: YFP reporter; E. coli; PhoQ-PhoP variant library, together with: 10 µM Mg2+; relative to: high Mg2+ state, higher = stronger signaling).
